Measured values from different studies.
Each line is one published result; not all experiments were run side by side.
Target: Ephrin type-B receptor 3 (EPHB3, Homo sapiens, UniProt P54753)
One construct used (P54753 34-998): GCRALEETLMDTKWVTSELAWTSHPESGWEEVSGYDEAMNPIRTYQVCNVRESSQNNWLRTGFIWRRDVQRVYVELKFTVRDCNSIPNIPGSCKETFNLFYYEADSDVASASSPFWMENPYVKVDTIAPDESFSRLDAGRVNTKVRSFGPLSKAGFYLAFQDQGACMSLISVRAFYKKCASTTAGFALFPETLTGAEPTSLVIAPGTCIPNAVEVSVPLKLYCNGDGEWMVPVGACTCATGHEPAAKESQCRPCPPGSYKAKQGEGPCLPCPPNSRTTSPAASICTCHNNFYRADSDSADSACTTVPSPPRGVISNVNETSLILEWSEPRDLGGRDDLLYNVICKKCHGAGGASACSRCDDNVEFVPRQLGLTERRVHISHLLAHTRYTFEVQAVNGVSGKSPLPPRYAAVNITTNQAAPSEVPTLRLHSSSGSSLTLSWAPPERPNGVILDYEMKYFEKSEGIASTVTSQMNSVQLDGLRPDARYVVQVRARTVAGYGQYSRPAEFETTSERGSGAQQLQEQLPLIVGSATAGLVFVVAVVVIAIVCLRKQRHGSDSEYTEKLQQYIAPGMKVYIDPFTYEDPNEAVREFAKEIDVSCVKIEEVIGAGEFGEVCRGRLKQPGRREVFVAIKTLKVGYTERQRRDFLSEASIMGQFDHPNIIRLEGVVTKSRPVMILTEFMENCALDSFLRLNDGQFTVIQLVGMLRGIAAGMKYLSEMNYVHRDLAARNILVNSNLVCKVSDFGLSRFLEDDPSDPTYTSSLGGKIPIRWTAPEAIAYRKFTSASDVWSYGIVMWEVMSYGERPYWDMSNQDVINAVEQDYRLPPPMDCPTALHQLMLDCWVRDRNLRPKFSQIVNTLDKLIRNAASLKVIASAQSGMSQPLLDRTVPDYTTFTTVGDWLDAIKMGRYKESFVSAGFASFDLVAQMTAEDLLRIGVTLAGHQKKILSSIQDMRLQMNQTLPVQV

C=CC(=O)N1CCC(COCC(=O)N2CCN(c3nc(-c4cnc(N)nc4C(F)F)nc(N4CCOC[C@@H]4C)n3)CC2)CC1  remaining binding (KINOMEscan; 1 µM): 100%
COc1cc(F)ccc1-c1ncnc(Nc2cccc(C[S@](C)(=N)=O)c2)n1  remaining activity (kinase activity; 10 µM, added: 10 µM ATP): 102%
CNc1ncc2c(/C=C/C(=O)N3CCC(OC)CC3)nn(Cc3cccc(C(F)(F)F)c3)c2n1  remaining activity (kinase activity, inhibitor; 1 µM; baseline: untreated control): 92%
Cc1cc(Nc2cc(N3CCN(C)CC3)nc(Sc3ccc(NC(=O)C4CC4)cc3)n2)[nH]n1  remaining activity (kinase activity, KinaseProfiler; 0.03 µM, species human; baseline: control): 104%
O=C1NC(=O)/C(=C/c2ccc(-c3ccc(F)cc3O)o2)S1  remaining activity (enzyme activity; 10 µM): 52%
COc1cc(-c2cncc3c2CN(C)Cc2cc(N4CCNCC4)ccc2-3)cc(OC)c1OC  remaining activity (kinase activity; 1 µM, human enzyme, added: ATP 10 µM; baseline: DMSO control): 93%
O=C(NC1CCC1)c1ccc2nc(-c3cccc(NS(=O)(=O)NCCN4CCCCC4)c3)cn2c1  remaining activity (enzyme activity; 10 µM): 81%
C=CC(=O)N1CCC[C@@H](n2nc(-c3ccc(Oc4ccccc4)cc3)c3c(N)ncnc32)C1  remaining activity (10 µM): 114%

For quick reference, copied from above:
COc1cc(F)ccc1-c1ncnc(Nc2cccc(C[S@](C)(=N)=O)c2)n1  remaining activity (kinase activity; 10 µM, added: 10 µM ATP): 102%
